Results collected from several papers.
Lines come from different studies, so protocols differ. Numbers after ± are the reported error.

SMILES	tested on	assay	test system	setting	scale	endpoint	value
N#C[C@@H]1CCCN1C(=O)CNC(=O)c1ccnc2ccc(OCCCN3CCN(C(=O)CCc4ccc5c(c4)CN4CCN(Cc6cc(CCC(=O)O)ccc6O)CC(=O)[O][Al-]([18F])([O]C(=O)C4)[O]5)CC3)cc12 (some centres unmarked)	U-87 MG tumour model		host not given, tumour	1 h, tumour-bearing		tracer uptake	17.5 %ID/g
CCCCCCCCCCCC(=O)NCCC(=O)N[C@H](CCCNC(=N)N)C(=O)N[C@H](CCCNC(=N)N)C(=O)N[C@H](CCCNC(=N)N)C(=O)N[C@H](CCCNC(=N)N)C(=O)N[C@H](CCCNC(=N)N)C(=O)N[C@@H](CCCNC(=N)N)C(=O)N[C@@H](CCCNC(=N)N)C(=O)N[C@@H](CCCNC(=N)N)C(=O)N[C@@H](CCCNC(=N)N)C(=O)N[C@@H](CCCCNC(=S)Nc1ccc2c(c1)C(=O)OC21c2ccc(O)cc2Oc2cc(O)ccc21)C(N)=O	Jurkat	flow cytometry		10 µM, 6 h, loaded 10 min at 37 °C, then washed	baseline: 0 h, higher = more retained	retained fluorescence	~50%
COc1cc2c(CCNC(C)=O)c[nH]c2cc1OS(=O)(=O)O	Abcg2 (mouse)		FVB/N wild-type lactating female mice	intravenous, 10 mg/kg melatonin, 30 min		plasma concentration	1920 ± 610 ng/mL
CNC(=O)c1ccc(N2CCN(Cc3ccc4nc(C)c(=O)[nH]c4c3F)CC2)c([18F])n1	Poly [ADP-ribose] polymerase 1 (Macaca mulatta, UniProt H9FQ77)		male rhesus monkey, cerebellum	intravenous, dose not given, baseline PET		radioactivity uptake	1.2 SUV
[64Cu+2].c1cnc(CNCc2ccc(CN3CCCN4CCNCCCN(CC4)CC3)cc2)nc1	CXCR4		NOD/SCID mouse, U87 and U87-stb-CXCR4 xenografts, kidney	iv, 60 min, ex vivo		tissue uptake	31.1 ± 2.62 %ID/g
COc1ccc(CNc2nc(N3CCC[C@H]3CO)ncc2C(=O)NNC(=O)c2cnc(N3CCC[C@H]3CO)nc2NCc2ccc(OC)c(Cl)c2)cc1Cl	Salmonella typhimurium		TA98, TA100, TA1535, TA102, TA97a	62.5 to 1000 µg/plate, 48 h, with and without S9	baseline: solvent control	revertants relative to solvent	≤ 2
[64Cu+2].c1ccc(CNCc2ccc(CN3CCCN4CCNCCCN(CC4)CC3)cc2)nc1	CXCR4		NOD/SCID mouse, U87 and U87-stb-CXCR4 xenografts, stomach	iv, 90 min, no blocking dose, ex vivo		tissue uptake	1.82 ± 0.22 %ID/g
CCCCCCCCCCCCCCCC[n+]1ccn(Cc2ccccc2)c1C	Trypanosoma cruzi	parasite growth, imaging	U2OS	72 h, intracellular, amastigote		EC50	560 nM

A few entries again:
SMILES	tested on	assay	test system	setting	scale	endpoint	value
CNC(=O)c1ccc(N2CCN(Cc3ccc4nc(C)c(=O)[nH]c4c3F)CC2)c([18F])n1	Poly [ADP-ribose] polymerase 1 (Macaca mulatta, UniProt H9FQ77)		male rhesus monkey, cerebellum	intravenous, dose not given, baseline PET		radioactivity uptake	1.2 SUV
